Published values from different studies.
Lines come from different studies, so protocols differ. Several values in a cell are separate wells, animals, samples, runs or records. ± marks the error that the study gave.
SLC6A9: Sodium- and chloride-dependent glycine transporter 1 (SLC6A9, Homo sapiens, UniProt P48067)
Chain of UniProt Q92633 (whole entry, unmodified, looked up): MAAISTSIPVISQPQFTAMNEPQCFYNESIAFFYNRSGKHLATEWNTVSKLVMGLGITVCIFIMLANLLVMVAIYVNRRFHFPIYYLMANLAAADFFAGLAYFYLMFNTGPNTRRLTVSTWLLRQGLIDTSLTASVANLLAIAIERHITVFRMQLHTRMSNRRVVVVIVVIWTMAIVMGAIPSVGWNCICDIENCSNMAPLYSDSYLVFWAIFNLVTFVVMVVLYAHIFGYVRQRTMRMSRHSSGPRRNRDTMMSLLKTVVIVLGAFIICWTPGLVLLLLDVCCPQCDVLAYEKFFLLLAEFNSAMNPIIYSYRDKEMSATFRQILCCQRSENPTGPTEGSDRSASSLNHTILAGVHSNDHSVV
Chain of UniProt P30086 (whole entry, looked up): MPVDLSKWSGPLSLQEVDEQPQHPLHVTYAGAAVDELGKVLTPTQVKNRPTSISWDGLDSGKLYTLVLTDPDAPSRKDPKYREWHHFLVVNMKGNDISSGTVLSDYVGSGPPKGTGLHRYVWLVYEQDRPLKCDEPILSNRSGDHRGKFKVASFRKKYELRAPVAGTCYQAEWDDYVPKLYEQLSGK
Chain of UniProt Q13148 (whole entry, looked up): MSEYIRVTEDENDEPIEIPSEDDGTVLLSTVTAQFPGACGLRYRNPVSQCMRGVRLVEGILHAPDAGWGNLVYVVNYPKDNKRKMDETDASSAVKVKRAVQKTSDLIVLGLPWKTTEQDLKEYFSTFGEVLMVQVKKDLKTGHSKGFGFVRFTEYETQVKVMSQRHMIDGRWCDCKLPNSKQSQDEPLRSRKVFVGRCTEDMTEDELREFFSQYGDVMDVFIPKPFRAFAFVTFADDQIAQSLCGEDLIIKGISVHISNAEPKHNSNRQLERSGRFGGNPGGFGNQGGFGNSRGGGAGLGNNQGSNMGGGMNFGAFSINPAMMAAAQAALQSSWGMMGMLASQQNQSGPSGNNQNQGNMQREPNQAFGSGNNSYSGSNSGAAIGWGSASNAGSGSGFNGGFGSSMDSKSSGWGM
Chain of UniProt Q9FLB1 (whole entry, looked up): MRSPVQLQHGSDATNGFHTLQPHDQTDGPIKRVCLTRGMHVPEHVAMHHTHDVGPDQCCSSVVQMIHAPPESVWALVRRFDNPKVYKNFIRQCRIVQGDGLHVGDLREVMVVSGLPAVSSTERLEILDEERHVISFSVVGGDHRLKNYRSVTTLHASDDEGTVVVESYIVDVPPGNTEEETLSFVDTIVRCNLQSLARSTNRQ
Chain of UniProt P48067 (whole entry, looked up): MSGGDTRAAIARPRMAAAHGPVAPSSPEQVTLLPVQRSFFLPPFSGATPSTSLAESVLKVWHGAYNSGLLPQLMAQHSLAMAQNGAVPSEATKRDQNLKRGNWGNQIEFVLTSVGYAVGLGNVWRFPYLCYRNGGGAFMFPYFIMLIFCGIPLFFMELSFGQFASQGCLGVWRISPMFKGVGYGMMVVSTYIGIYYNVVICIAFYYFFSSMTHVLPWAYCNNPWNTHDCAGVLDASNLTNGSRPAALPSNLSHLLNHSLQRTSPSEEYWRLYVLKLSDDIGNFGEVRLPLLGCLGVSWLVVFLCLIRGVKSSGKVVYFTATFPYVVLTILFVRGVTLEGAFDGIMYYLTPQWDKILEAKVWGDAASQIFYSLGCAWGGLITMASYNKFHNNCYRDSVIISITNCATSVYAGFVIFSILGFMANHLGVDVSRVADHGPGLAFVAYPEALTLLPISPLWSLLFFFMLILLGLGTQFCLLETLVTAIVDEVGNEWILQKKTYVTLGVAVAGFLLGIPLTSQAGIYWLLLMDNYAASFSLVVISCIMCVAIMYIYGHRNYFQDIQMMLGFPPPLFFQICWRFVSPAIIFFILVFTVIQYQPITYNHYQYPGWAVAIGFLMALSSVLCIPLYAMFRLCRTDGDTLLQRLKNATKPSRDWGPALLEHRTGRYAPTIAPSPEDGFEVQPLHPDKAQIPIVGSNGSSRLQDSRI
Chain of UniProt P51575 (whole entry, looked up): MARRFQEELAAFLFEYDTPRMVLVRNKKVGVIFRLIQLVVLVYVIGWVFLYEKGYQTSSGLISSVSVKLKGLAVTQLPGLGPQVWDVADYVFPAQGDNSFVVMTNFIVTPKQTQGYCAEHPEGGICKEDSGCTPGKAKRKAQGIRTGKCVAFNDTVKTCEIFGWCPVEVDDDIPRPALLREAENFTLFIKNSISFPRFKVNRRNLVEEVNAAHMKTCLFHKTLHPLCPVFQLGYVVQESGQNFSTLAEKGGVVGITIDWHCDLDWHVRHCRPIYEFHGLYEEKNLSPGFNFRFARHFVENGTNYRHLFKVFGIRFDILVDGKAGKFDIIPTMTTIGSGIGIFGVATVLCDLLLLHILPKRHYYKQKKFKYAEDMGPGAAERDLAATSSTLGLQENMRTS
Chain of UniProt P19492 (whole entry, looked up): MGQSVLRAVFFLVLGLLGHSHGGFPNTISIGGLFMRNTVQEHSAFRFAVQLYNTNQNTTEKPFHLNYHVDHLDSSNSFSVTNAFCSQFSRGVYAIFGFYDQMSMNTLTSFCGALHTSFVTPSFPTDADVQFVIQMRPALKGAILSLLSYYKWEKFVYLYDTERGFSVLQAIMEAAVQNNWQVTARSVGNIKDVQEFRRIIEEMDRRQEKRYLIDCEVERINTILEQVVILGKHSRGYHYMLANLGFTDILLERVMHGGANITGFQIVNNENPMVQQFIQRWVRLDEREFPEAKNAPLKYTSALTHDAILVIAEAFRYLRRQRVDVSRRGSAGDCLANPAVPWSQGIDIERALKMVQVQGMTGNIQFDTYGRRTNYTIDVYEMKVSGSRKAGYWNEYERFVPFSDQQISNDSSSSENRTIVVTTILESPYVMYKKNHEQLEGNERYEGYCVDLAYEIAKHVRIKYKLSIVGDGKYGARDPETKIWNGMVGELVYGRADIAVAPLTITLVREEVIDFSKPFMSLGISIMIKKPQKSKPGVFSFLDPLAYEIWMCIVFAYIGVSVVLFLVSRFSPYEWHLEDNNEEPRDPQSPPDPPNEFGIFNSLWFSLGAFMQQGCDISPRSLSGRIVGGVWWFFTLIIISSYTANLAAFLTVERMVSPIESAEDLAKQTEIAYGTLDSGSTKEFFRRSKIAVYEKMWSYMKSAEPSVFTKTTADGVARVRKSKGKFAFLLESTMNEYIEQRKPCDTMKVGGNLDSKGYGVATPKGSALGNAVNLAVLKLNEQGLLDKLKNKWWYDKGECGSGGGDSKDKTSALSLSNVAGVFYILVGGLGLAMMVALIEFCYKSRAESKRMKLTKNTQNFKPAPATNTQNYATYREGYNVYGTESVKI
Chain of UniProt P08191 (whole entry, looked up): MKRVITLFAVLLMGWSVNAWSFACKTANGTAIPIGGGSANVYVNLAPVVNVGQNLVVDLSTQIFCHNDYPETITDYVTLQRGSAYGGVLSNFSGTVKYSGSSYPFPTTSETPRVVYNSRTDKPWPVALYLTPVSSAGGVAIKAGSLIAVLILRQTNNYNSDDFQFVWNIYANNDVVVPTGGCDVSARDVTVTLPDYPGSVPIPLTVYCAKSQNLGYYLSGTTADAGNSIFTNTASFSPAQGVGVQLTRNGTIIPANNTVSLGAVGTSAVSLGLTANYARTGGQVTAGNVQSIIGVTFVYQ
Chain of UniProt Q9EP73 (whole entry, looked up): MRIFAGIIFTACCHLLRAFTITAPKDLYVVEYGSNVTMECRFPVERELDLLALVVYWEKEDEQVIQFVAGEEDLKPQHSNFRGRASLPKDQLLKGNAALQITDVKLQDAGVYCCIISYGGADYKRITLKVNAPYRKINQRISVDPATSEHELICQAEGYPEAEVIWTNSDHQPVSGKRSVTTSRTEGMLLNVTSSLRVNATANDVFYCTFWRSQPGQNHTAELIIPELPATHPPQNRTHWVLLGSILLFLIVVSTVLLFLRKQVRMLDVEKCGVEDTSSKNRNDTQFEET
Chain of UniProt Q9BY41 (whole entry, unmodified, looked up): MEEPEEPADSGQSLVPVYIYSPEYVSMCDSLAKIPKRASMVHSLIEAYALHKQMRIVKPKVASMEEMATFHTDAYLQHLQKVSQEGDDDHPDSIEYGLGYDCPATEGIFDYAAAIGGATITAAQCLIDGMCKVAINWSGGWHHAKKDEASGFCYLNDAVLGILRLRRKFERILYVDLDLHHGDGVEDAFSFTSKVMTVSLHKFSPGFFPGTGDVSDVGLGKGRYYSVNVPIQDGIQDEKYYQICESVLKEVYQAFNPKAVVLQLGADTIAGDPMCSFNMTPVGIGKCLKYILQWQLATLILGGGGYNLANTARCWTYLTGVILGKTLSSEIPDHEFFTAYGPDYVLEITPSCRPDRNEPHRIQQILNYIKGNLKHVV
Chain of UniProt P07550 (whole entry, looked up): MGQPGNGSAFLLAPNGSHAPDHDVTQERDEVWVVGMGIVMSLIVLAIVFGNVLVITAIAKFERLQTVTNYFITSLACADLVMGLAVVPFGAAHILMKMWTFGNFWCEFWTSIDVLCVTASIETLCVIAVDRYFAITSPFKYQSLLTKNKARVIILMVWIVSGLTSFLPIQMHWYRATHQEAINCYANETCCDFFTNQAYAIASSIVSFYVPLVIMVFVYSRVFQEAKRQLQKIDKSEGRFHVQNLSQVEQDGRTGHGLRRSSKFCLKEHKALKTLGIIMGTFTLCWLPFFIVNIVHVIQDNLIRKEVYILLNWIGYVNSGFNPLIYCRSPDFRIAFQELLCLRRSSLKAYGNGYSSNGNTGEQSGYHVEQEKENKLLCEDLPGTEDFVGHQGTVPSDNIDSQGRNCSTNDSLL
Chain of UniProt Q9HA64 (whole entry, looked up): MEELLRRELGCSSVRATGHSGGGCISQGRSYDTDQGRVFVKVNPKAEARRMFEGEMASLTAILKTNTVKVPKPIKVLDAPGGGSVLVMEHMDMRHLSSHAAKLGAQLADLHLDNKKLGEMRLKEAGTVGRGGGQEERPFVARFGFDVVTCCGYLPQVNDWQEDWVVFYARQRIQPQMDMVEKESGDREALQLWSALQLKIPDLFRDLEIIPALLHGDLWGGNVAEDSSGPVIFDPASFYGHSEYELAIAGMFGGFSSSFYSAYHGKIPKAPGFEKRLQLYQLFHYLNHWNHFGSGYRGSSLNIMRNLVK

SMILES | target or system | assay | test system | conditions | how to read | endpoint | result
CCCCCCCCCCCCC/C=C/C=O | Outer kinetochore KNL1 complex subunit ZWINT (ZWINT, Homo sapiens, UniProt O95229) | competitive isoTOP-ABPP, refers to: ZWINT cysteine peptide | Ramos soluble proteome | 100 µM, added: iodoacetamide probe | reference: DMSO over compound-treated, higher = stronger cysteine blockade | isoTOP-ABPP competition ratio | 1.1
CC(=O)NCCN(c1nc(NCc2n[nH]c3c2CCCC3)nc(N2CC3C(CCOc4cc(-c5scnc5C)ccc4CNC(=O)[C@@H]4C[C@@H](O)CN4C(=O)[C@@H](NC(=O)C4(F)CC4)C(C)(C)C)C3C2)n1)C(C)C (stereo partly shown) | VHL/BRD9 (Homo sapiens, UniProt P40337+Q9H8M2) | BRD9 degradation, degrader, HiBiT | HEK293T BRD9-HiBiT | 15 h |  | Dmax | 59%
C[n+]1ccc(/C=N/NC(=O)c2cccc(C(=O)N/N=C/c3cc[n+](C)c4ccccc34)n2)c2ccccc21 | hp2 hairpin duplex DNA | FRET melting |  | 1 µM |  | ΔTm | 2.6 ± 1.1 °C
COc1ccc(C(OCCN2CCC(O)C2C(=O)O)(c2ccc(OC)cc2)c2ccc(OC)cc2)cc1 (stereo not shown) | SLC6A9 | cell-free assay |  | 10 µM |  | remaining signal | 28.3%
C=C(NC(=O)c1csc(-c2nc3c(cc2O)-c2nc(cs2)C(=O)NC(C(C)O)C(=O)NC(=C(C)OC)c2nc(cs2)C(=O)NC2c4nc(cs4)C(=O)NC(COC(=O)c4c5c6c(cccc6n4O)COC(=O)C(OC4CC(C)(O)C(N(C)C)C(C)O4)C2OC5)c2nc-3cs2)n1)C(N)=O (stereo not shown) |  |  | ICR mice, Streptococcus pneumoniae ATCC 49169 infected, immunocompromised, blood | intravenous, 32 mg/kg/day three times daily |  | AUC(0-t) | 2900 ng·h/mL
COc1ccc2[nH]c(I)c(CCNC(C)=O)c2c1 | Melatonin receptor type 1B (MTNR1B, Homo sapiens, UniProt P49286) | GTPγS binding, agonist, radiometric |  | cell membranes |  | Emax | 174%
Oc1cc(O)c2cc(O[C@@H]3OC[C@H](O)[C@H](O)[C@H]3O)c(-c3ccc(O)c(O)c3)[o+]c2c1 | PPO3 (Agaricus bisporus, UniProt C7FF04) | fluorescence quenching |  | concentration not given |  | binding enthalpy | -78.25 ± 0.24 kJ/mol
COc1cc(Nc2nc(C)cc(-c3cnn4nc(OC)ccc34)n2)cc(C(F)(F)F)c1 | Phosphatidylinositol 4,5-bisphosphate 3-kinase catalytic subunit alpha isoform (PIK3CA, Homo sapiens, UniProt P42336, H1047Y) | inhibitor |  | 1 µM | reference: control | remaining activity | 85%
Nc1nnc(-c2ccccc2O)cc1N1CCNCC1 | SWI/SNF-related matrix-associated actin-dependent regulator of chromatin subfamily A member 4, bromodomain (SMARCA4, Homo sapiens, UniProt P51532) | ternary complex binding, TR-FRET competition |  | added: VCB complex |  | cooperativity factor alpha | 1
CCN(CC)C(CO)c1cccc2c(C)c(C)oc12 (stereo not shown) | Lysophosphatidic acid receptor 1 (LPAR1, Homo sapiens, UniProt Q92633, W210A) | G-protein dissociation, agonist, NanoBiT | HEK-293T | 1 µM, W210A mutant | reference: baseline luminescence | fold change | 0.437 and 0.827 and 0.743 and 1.02 and 0.987 and 0.651
O=C(O)Cc1cc2c(cc1C(=O)c1ccccc1Cl)OCO2 | Gria2/Glutamate receptor 3 (Rattus norvegicus, UniProt P19491+P19492) | glutamate-evoked current, whole-cell patch clamp | HEK-293T | concentration not given, weighted tau, 1 ms pulse, added: glutamate |  | deactivation time constant | 8.6 ± 0.6 ms
O=[N+]([O-])c1cc(Br)cc([N+](=O)[O-])c1NS(=O)(=O)c1ccc(Br)cc1 | PYL5, with HAB1 (Arabidopsis thaliana, UniProt Q9FLB1) | antagonist |  | 250 µM, added: ABA 5 µM | higher = more HAB1 activity | HAB1 phosphatase activity | 0.129 a.u. and 0.125 a.u.
CCCC[C@H](NC(=O)[C@H](CCC(N)=O)NC(=O)[C@H](CCC(=O)O)NC(=O)[C@@H]1CCCN1C(=O)[C@@H](NC(=O)[C@H](C)NC(=O)[C@H](CC(N)=O)NC(=O)[C@H](CC(=O)O)NC(=O)CNC(=O)[C@@H]1CCCN1C(=O)[C@H](Cc1ccc(O)cc1)NC(=O)[C@@H](NC(=O)[C@@H]1CCCN1C(=O)[C@H](CCC(=O)O)NC(=O)[C@H](CC(C)C)NC(=O)[C@@H]1CCCN1C(=O)[C@H](C)N)C(C)C)[C@@H](C)O)C(=O)N[C@@H](C)C(=O)N[C@@H](CCC(N)=O)C(=O)N[C@@H](Cc1ccc(O)cc1)C(=O)N[C@@H](C)C(=O)N[C@@H](CCCCNC(=O)c1ccc2c(c1)C(=O)OC21c2ccc(N(C)C)cc2Oc2cc(N(C)C)ccc21)C(=O)N[C@@H](CC(=O)O)C(=O)N[C@@H](CC(C)C)C(=O)N[C@@H](CCCNC(=N)N)C(=O)N[C@@H](CCCNC(=N)N)C(=O)N[C@@H](Cc1ccc(O)cc1)C(=O)N[C@H](C(=O)N[C@@H](CC(N)=O)C(=O)N[C@@H](CCCC)C(=O)N[C@@H](CC(C)C)C(=O)N[C@H](C(=O)N[C@@H](CCCNC(=N)N)C(=O)N1CCC[C@H]1C(=O)N[C@@H](CCCNC(=N)N)C(=O)N[C@@H](Cc1ccc(O)cc1)C(N)=O)[C@@H](C)O)[C@@H](C)CC | Neuropeptide Y receptor type 4 (NPY4R, Homo sapiens, UniProt P50391, F184A) | NanoBRET binding |  | Nluc-tagged receptor F184A, unit not given | net BRET ratio | BRETmax | 0.044 ± 0.0016
CCCCCC(O)/C=C/C=O (stereo not shown) | Histone acetyltransferase type B catalytic subunit (Homo sapiens, UniProt O14929) | competitive isoTOP-ABPP, refers to: HAT1 cysteine peptide | Ramos soluble proteome | 100 µM, added: iodoacetamide probe | reference: DMSO over compound-treated, higher = stronger cysteine blockade | isoTOP-ABPP competition ratio | 1.5
CCN(CC)CC#CCNc1ccnc2cc(Cl)ccc12 | Salmonella typhimurium | mini-Ames test | TA102 | 125.0 µg/well, with rat liver S9 |  | revertants | 94 revertants/well and 88 revertants/well
Fc1ccc(Nc2nc(NC3CCCCC3)c3cc(C(F)(F)F)ccc3n2)cc1F | Beta-2 adrenergic receptor (ADRB2, Homo sapiens, UniProt P07550) | β-arrestin2 recruitment, PathHunter and GloSensor |  |  | reference: GloSensor IC50 over PathHunter IC50 | bias factor | > 500 fold
CN(CCNCc1ccncc1[O-])CCNCc1ccncc1[O-].[Cl-].[Fe+3] | TF (Homo sapiens, UniProt P02787) | refers to: Fe |  | 0.05 mM, pH 7.4, 37 °C, added: transferrin 0.10 mM |  | observed transchelation rate constant | 0.037 min⁻¹
O=C(CCCCCCS)Nc1ccccc1 | Histone deacetylase 8 (HDAC8, Homo sapiens, UniProt Q9BY41) | ITC | Tris-HCl buffer | 303 K |  | TΔS° | 2 kcal/mol
COC1CN([C@H]2CC[C@H]([C@@]3(C)Oc4c(Cl)cc(C(=O)NCc5c(SC)cc(C)[nH]c5=O)c(C)c4O3)CC2)C1 |  | RNA-seq, refers to: CD276 | human, whole blood | dose not given, 24 h | reference: pretreatment baseline | log2 fold change | 6.29
O=C(NN=C1c2ccccc2-c2nc3nonc3nc21)c1ccccc1O | Ubiquitin carboxyl-terminal hydrolase 14 (USP14, Homo sapiens, UniProt P54578) | enzyme activity, inhibitor |  | 17 µM |  | inhibition | 54%
CCCCCCCO[C@H]1[C@H](OC)O[C@H](CO)[C@@H](O)[C@H](O)[C@@H]1O | Type 1 fimbrin D-mannose specific adhesin, lectin domain (fimH, Escherichia coli K-12, UniProt P08191) | isothermal titration calorimetry |  | concentration not given, 25 °C |  | binding stoichiometry | 0.98 ± 0.01
CCCCCC=CC=C1C(=O)C=CC1CC=CCCCC(=O)O (stereo not shown) | Ketosamine-3-kinase, C24 (FN3KRP, Homo sapiens, UniProt Q9HA64) | competitive isoTOP-ABPP | Ramos soluble proteome | 100 µM, 60 min, added: iodoacetamide probe | reference: DMSO over compound-treated, higher = stronger cysteine blockade | isoTOP-ABPP competition ratio | 2.1
COc1ccc(C(OCCN2CCCC(C(=O)O)C2)(c2ccc(OC)cc2)c2ccc(S(=O)(=O)N(C)C)cc2)cc1 (stereo not shown) | SLC6A9 | cell-free assay |  | 1 µM |  | remaining signal | 92.6%
N[C@H]1CC[C@H](Nc2nccc(-c3cccnc3Oc3ccc(NC(=O)NC4CC4)c4ccccc34)n2)CC1 | Phosphatidylethanolamine-binding protein 1 (Homo sapiens, UniProt P30086) | kinobead competition pulldown, refers to: PEBP1 | HEK293/HCT116 lysate mixture | 10 µM, 1 h, 4 °C | lower = stronger competition | log2 LFQ intensity | 18.7 and 19.1 and 22 and 19.8
N#C[C@@H]1CC(F)(F)CN1C(=O)CNC(=O)c1ccnc2c(NC(=O)[C@H](CCCCNC(=O)CCOCCOCCOCCOCCOCCOCCNC(=O)CN3CCN(CC(=O)[O-])CCN(CC(=O)[O-])CCN(CC(=O)[O-])CC3)NC(=O)CCCc3ccc(I)cc3)cccc12.[177Lu+3] | U-87 MG tumour model |  | host not given, stomach | 96 h, tumour-bearing |  | tracer uptake | 0.06 %ID/g
O=C(Nc1cc(C(=O)Nc2ccc(S(=O)(=O)O)cc2S(=O)(=O)O)cc(C(=O)Nc2ccc(S(=O)(=O)O)cc2S(=O)(=O)O)c1)Nc1cc(C(=O)Nc2ccc(S(=O)(=O)O)cc2S(=O)(=O)O)cc(C(=O)Nc2ccc(S(=O)(=O)O)cc2S(=O)(=O)O)c1 | P2X purinoceptor 1 (P2RX1, Homo sapiens, UniProt P51575) | antagonist, calcium influx |  | 3.16 µM, added: submaximal α,β-methylene ATP | reference: ionomycin response | calcium influx | 0% and 7.14%
O=C1c2sc(-c3ccc(N4CCC(CO)CC4)nc3F)nc2CCN1c1cccnc1 | TAR DNA-binding protein 43, aggregated (TARDBP, Homo sapiens, UniProt Q13148) | radioligand binding | human, FTLD-TDP type A insoluble extract | 1.29 nM |  | specific binding | 0.526 nM and 0.754 nM and 0.492 nM and 0.734 nM
CC[C@H](C)[C@H](NC(=O)[C@@H]1CCCN1C(=O)CNC(=O)[C@H](Cc1c[nH]c2ccccc12)NC(=O)[C@@H](NC(=O)[C@@H](NC(=O)[C@H](Cc1ccc(O)cc1)NC(=O)[C@@H](NC(=O)CNC(=O)[C@@H](NC(=O)CNC(=O)[C@H](CCC(=O)O)NC(=O)[C@H](CC(=O)O)NC(=O)[C@H](C)NC(=O)[C@H](CC(=O)O)NC(=O)[C@@H](NC(=O)[C@H](CC(C)C)NC(=O)[C@H](CC(C)C)NC(=O)[C@H](C)NC(=O)[C@H](CC(C)C)NC(=O)[C@H](CC(=O)O)NC(=O)[C@H](CC(C)C)NC(=O)[C@H](CC(C)C)NC(=O)[C@H](CC(C)C)NC(=O)[C@H](CC(C)C)NC(=O)[C@@H]1CCCN1C(=O)[C@@H](NC(=O)[C@@H](NC(=O)[C@H](Cc1ccccc1)NC(=O)[C@H](CC(C)C)NC(=O)[C@H](Cc1c[nH]c2ccccc12)NC(=O)[C@H](CC(=O)O)NC(=O)[C@H](C)NC(=O)[C@H](Cc1ccc(O)cc1)NC(=O)[C@H](CCCNC(=N)N)NC(=O)[C@H](C)NC(=O)[C@H](Cc1c[nH]c2ccccc12)NC(=O)[C@H](Cc1ccc(O)cc1)NC(=O)[C@@H](NC(=O)[C@@H]1CCCN1C(=O)[C@H](CC(N)=O)NC(=O)[C@H](CCC(N)=O)NC(=O)[C@H](CCC(=O)O)NC(=O)[C@H](C)NC(=O)[C@H](C)NC(=O)CCCCCN1C(=O)CC(SC[C@H](N)C(=O)N[C@@H](Cc2c[nH]cn2)C(=O)N[C@@H](Cc2c[nH]cn2)C(=O)N[C@@H](Cc2c[nH]cn2)C(=O)N[C@@H](Cc2c[nH]cn2)C(=O)N[C@@H](Cc2c[nH]cn2)C(=O)N[C@@H](Cc2c[nH]cn2)C(=O)N[C@@H](Cc2c[nH]cn2)C(=O)N[C@@H](Cc2c[nH]cn2)C(=O)N[C@@H](Cc2c[nH]cn2)C(=O)N[C@@H](Cc2c[nH]cn2)C(=O)N[C@@H](Cc2c[nH]cn2)C(=O)N[C@@H](Cc2c[nH]cn2)C(=O)N[C@@H](Cc2c[nH]cn2)C(=O)N[C@@H](Cc2c[nH]cn2)C(=O)N[C@@H](Cc2c[nH]cn2)C(=O)N[C@@H](CS)C(=O)N[C@H](C(=O)N[C@@H](CCCNC(=N)N)C(=O)N[C@@H](C)C(=O)N[C@@H](CCCNC(=N)N)C(=O)N[C@H](C(=O)N[C@@H](CCCNC(=N)N)C(=O)O)[C@@H](C)O)C(C)C)C1=O)[C@@H](C)CC)[C@@H](C)O)[C@@H](C)O)C(C)C)[C@@H](C)O)[C@@H](C)CC)C(C)C)[C@@H](C)CC)C(=O)O (stereo partly shown) | Programmed cell death 1 ligand 1 (Cd274, Mus musculus, UniProt Q9EP73) | western blot | 4T1 | 0.5 µM, 12 h | reference: untreated | protein level | 62.4%

For quick reference, copied from above:
SMILES | target or system | assay | test system | conditions | how to read | endpoint | result
C[n+]1ccc(/C=N/NC(=O)c2cccc(C(=O)N/N=C/c3cc[n+](C)c4ccccc34)n2)c2ccccc21 | hp2 hairpin duplex DNA | FRET melting |  | 1 µM |  | ΔTm | 2.6 ± 1.1 °C
COc1ccc(C(OCCN2CCC(O)C2C(=O)O)(c2ccc(OC)cc2)c2ccc(OC)cc2)cc1 (stereo not shown) | SLC6A9 | cell-free assay |  | 10 µM |  | remaining signal | 28.3%
